Measured values gathered from unrelated publications.
Compare with care: the assays were run in different laboratories.

| Compound | species | route | dose | time | setting | tumour growth inhibition [%] |
| --- | --- | --- | --- | --- | --- | --- |
| C=CC(=O)N1CC2C(=O)N(CCN(C)C)c3c(c4cc(Cl)c(-c5c(O)cccc5F)nc4n(-c4c(C)ccnc4C(C)C)c3=O)N2CC1C (centres unmarked) | mouse, NCI-H2122 subcutaneous xenograft | oral | 30 mg/kg once daily |  |  | 65.9 |
| COc1c(Cl)cccc1Nc1c(-c2ccncc2C#C[C@@]2(C)CCCN2C(=O)/C=C/CN(C)C)[nH]c2c1C(=O)NCC2 | female NOD/SCID mouse, PDX |  | 100 mg/kg once daily | 21 days | HER2 YVMA | 130 |
| COC(=O)C1CN1S(=O)(=O)c1ccc2cc(C)ccc2c1 (centres unmarked) | mouse, Lewis lung carcinoma | ip | 100 mg/kg | 360 h |  | 58 |
| CC1(C)CCC(CN2CCN(c3ccc(C(=O)NS(=O)(=O)c4ccc(NCC5CCOCC5)c([N+](=O)[O-])c4)c(Oc4cnc5[nH]ccc5c4)c3)CC2)=C(c2ccc(Cl)cc2)C1 | mouse Maver1 xenograft | oral | 15 mg/kg once daily | day 14 |  | 91 |
| Cc1noc2c1-c1ccccc1C(c1ccc(Cl)cc1)=N[C@H]2CC(N)=O | mouse, MV4-11 subcutaneous xenograft |  | 120 mg/kg | 14 days |  | 112 |
| CC(C)c1ccccc1[C@@H]1CCCN1C1CC2(CCN(c3ccc(C(=O)NS(=O)(=O)c4ccc(NC[C@H]5CC[C@](C)(O)CC5)c([N+](=O)[O-])c4)c(Oc4cnc5[nH]ccc5c4)c3)CC2)C1 | mouse Maver1 xenograft | oral | 15 mg/kg once daily | day 14 |  | 103 |
| CC(C)c1ccc(N(C)c2ccc3c(c2)OCC[C@H]3CNc2cnccc2C(=O)O)cc1 | mouse, OCI-LY19 xenograft |  | 50 mg/kg QD | day 21 |  | 90 |
| CCCCCc1ccc(S(=O)(=O)N2CC2C(=O)OC)cc1 (centres unmarked) | mouse, Lewis lung carcinoma | intraperitoneal | 5 mg/kg, 16 doses | day 10 |  | 48 |

Some of these lines once more:
| Compound | species | route | dose | time | setting | tumour growth inhibition [%] |
| --- | --- | --- | --- | --- | --- | --- |
| CC(C)c1ccc(N(C)c2ccc3c(c2)OCC[C@H]3CNc2cnccc2C(=O)O)cc1 | mouse, OCI-LY19 xenograft |  | 50 mg/kg QD | day 21 |  | 90 |
